{"data": "Results pooled from the literature", "note": "Compare with care: the assays were run in different laboratories. ± gives the spread as reported."}
{"SMILES": "N=C(N)NCCC[C@H](NC(=O)[C@H](CCCCN)NC(=O)[C@H](CCC(N)=O)NC(=O)CCOCCOCCOCCNC(=O)CN1CCN(CC(=O)O)CCN(CC(=O)O)CCN(CC(=O)O)CC1)C(=O)N[C@@H](CCCCN)C(=O)N[C@@H](CCCNC(=N)N)C(=O)N[C@@H](CCCCN)C(=O)N[C@@H](CCCCN)C(=O)N[C@@H](CO)C(=O)N[C@@H](CCCNC(=N)N)C(=O)N[C@@H](Cc1ccc(O)cc1)C(=O)N[C@@H](CCCCN)C(=O)N[C@@H](CO)C(=O)O [copper-64 labelled]", "assay": "PET", "test system": "mice, B16-F10 melanoma", "conditions": "intravenous, dose not given", "endpoint": "time to peak muscle radioactivity", "result": "≤ 5 min"}
{"SMILES": "N=C(N)NCCC[C@@H]1NC(=O)[C@H](CCCCNC(=O)CCOCCOCCOCCOCCNC(=O)CN2CCN(CC(=O)O)CCN(CC(=O)O)CCN(CC(=O)O)CC2)NC(=O)[C@@H](Cc2ccccc2)NC(=O)[C@H](CC(=O)O)NC(=O)CNC1=O [indium-111 labelled]", "test system": "athymic nude mice, female, U-87 MG glioma xenograft, tumour and blood", "conditions": "intravenous, 4 h", "how to read": "reference: tumour over blood", "endpoint": "tumour to tissue ratio", "result": "8.75 ± 1.74"}
{"SMILES": "CC(C)C[C@@H]1NC(=O)[C@H](C(C)C)NC(=O)[C@H](CO)NC(=O)CNC(=O)CNC(=O)[C@H](CCCNC(=N)N)NC(=O)[C@@H]2CCCN2C(=O)[C@@H](NC(=O)CC[C@H](NC(=O)c2ccc(N(C)Cc3cnc4nc(N)nc(N)c4n3)cc2)C(=O)O)C(C)(C)SSC[C@@H](C(=O)O)NC(=O)CNC(=O)[C@H]([C@@H](C)O)NC(=O)[C@H](C(C)C)NC1=O", "assay": "chemical stability", "test system": "NaOH solution", "conditions": "100 µM, pH 12.0, 70 °C", "endpoint": "half-life", "result": "9.29 h"}
{"SMILES": "N=C(N)NCCC[C@@H]1NC(=O)[C@H](CCCCNC(=O)CNC(=O)CNC(=O)CNC(=O)CC[C@H](NC(=O)c2ccc(NN=Cc3ccccc3S(=O)(=O)O)nc2)C(=O)NCC(=O)NCC(=O)NCC(=O)NCCCC[C@@H]2NC(=O)[C@@H](Cc3ccccc3)NC(=O)[C@H](CC(=O)O)NC(=O)CNC(=O)[C@H](CCCNC(=N)N)NC2=O)NC(=O)[C@@H](Cc2ccccc2)NC(=O)[C@H](CC(=O)O)NC(=O)CNC1=O [technetium-99m labelled]", "test system": "athymic nu/nu mouse, female, MDA-MB-435 xenograft, kidney", "conditions": "intravenous, 120 min", "endpoint": "tissue uptake", "result": "10.7 ± 2.43 %ID/g"}
{"SMILES": "CCCC[C@H](NC(=O)CCCCCCCNC(=O)c1ccc(NN)nc1)C(=O)N[C@H]1CC(=O)NCCCC[C@@H](C(N)=O)NC(=O)[C@H](Cc2c[nH]c3ccccc23)NC(=O)[C@H](CCCNC(=N)N)NC(=O)[C@@H](Cc2ccccc2)NC(=O)[C@H](Cc2c[nH]cn2)NC1=O [technetium-99m labelled]", "test system": "C57 mouse, B16/F1 melanoma, tumor", "conditions": "intravenous, 2 h", "endpoint": "uptake", "result": "22.3 ± 1.72 %ID/g"}
{"SMILES": "N=C(N)NCCC[C@@H]1NC(=O)[C@H](CCCCNC(=O)CNC(=O)CNC(=O)CNC(=O)CC[C@H](NC(=O)CCOCCOCCOCCOCCNC(=O)CC[C@H](NC(=O)CN2CCN(CC(=O)O)CCN(CC(=O)O)CCN(CC(=O)O)CC2)C(=O)NCCOCCOCCOCCOCCC(=O)N[C@@H](CCC(=O)NCC(=O)NCC(=O)NCC(=O)NCCCC[C@@H]2NC(=O)[C@@H](Cc3ccccc3)NC(=O)[C@H](CC(=O)O)NC(=O)CNC(=O)[C@H](CCCNC(=N)N)NC2=O)C(=O)NCC(=O)NCC(=O)NCC(=O)NCCCC[C@@H]2NC(=O)[C@@H](Cc3ccccc3)NC(=O)[C@H](CC(=O)O)NC(=O)CNC(=O)[C@H](CCCNC(=N)N)NC2=O)C(=O)NCC(=O)NCC(=O)NCC(=O)NCCCC[C@@H]2NC(=O)[C@@H](Cc3ccccc3)NC(=O)[C@H](CC(=O)O)NC(=O)CNC(=O)[C@H](CCCNC(=N)N)NC2=O)NC(=O)[C@@H](Cc2ccccc2)NC(=O)[C@H](CC(=O)O)NC(=O)CNC1=O [indium-111 labelled]", "test system": "athymic nude mice, female, U-87 MG glioma xenograft, tumour and muscle", "conditions": "intravenous, 0.5 h", "how to read": "reference: tumour over muscle", "endpoint": "tumour to tissue ratio", "result": "6.99 ± 1.79"}
{"SMILES": "Cc1ncsc1-c1ccc(CNC(=O)[C@@H]2C[C@@H](OC(=O)OCCSSCCn3cc(CCCC(=O)N[C@@H](Cc4ccc(O)cc4)C(=O)N[C@@H](CCCNC(=N)N)C(=O)N[C@@H](CCCNC(=N)N)C(=O)N[C@@H](CCCNC(=N)N)C(=O)N[C@@H](CCCNC(=N)N)C(=O)N[C@@H](CCCNC(=N)N)C(=O)N[C@@H](CCCNC(=N)N)C(=O)N[C@@H](CCCNC(=N)N)C(=O)N[C@@H](CCCNC(=N)N)C(=O)N[C@@H](CCCNC(=N)N)C(N)=O)nn3)CN2C(=O)[C@@H](NC(=O)COCCOCCOCCNC(=O)C[C@@H]2N=C(c3ccc(Cl)cc3)c3c(sc(C)c3C)-n3c(C)nnc32)C(C)(C)C)cc1", "assay": "UHPLC", "test system": "PBS", "conditions": "100 nM, 1 h, 37 °C, with: 5 mM glutathione", "how to read": "reference: total peak area", "endpoint": "remaining intact compound", "result": "0%"}
{"SMILES": "CCCC[C@H](NC(=O)CNC(=O)CNC(=O)c1ccc(NN)nc1)C(=O)N[C@H]1CC(=O)NCCCC[C@@H](C(N)=O)NC(=O)[C@H](Cc2c[nH]c3ccccc23)NC(=O)[C@H](CCCNC(=N)N)NC(=O)[C@@H](Cc2ccccc2)NC(=O)[C@H](Cc2c[nH]cn2)NC1=O [technetium-99m labelled]", "test system": "C57 mouse, B16/F1 melanoma-bearing", "conditions": "intravenous, 2 h", "how to read": "reference: tumour over liver", "endpoint": "tissue uptake ratio", "result": 27.2}
{"SMILES": "C[C@@H](O)[C@H](NC(=O)[C@@H]1CSSC[C@H](NC(=O)[C@@H](Cc2ccccc2)NC(=O)CN2CCCN3CCN(CCCN(CP(=O)(O)O)CC3)CC2)C(=O)N[C@@H](Cc2ccc(O)cc2)C(=O)N[C@H](Cc2c[nH]c3ccccc23)C(=O)N[C@@H](CCCCN)C(=O)N[C@@H]([C@@H](C)O)C(=O)N1)C(=O)O [copper-64 labelled]", "test system": "Lewis rat, male, tumour-bearing", "conditions": "4 h", "how to read": "reference: tumour over blood", "endpoint": "tumour-to-tissue ratio", "result": "76 ± 20"}
{"SMILES": "CC(C)C[C@H](NC(=O)[C@@H]1CCCN1C(=O)[C@H](CCCCN)NC(=O)[C@@H](N)CO)C(=O)N1CCC[C@H]1C(=O)N[C@@H](CCC(=O)O)C(=O)N[C@H](C(=O)N[C@H](C(=O)N[C@@H](CC(=O)O)C(=O)N[C@@H](CCC(=O)O)C(=O)N[C@@H](Cc1ccc(O)cc1)C(=O)N[C@@H](Cc1cn(CCOCCOCCOCCNC(=O)CCc2ccc(O)c(CN(CCN(CC(=O)O)Cc3cc(CCC(=O)NCCCC[C@H](NC(=O)N[C@@H](CCC(=O)O)C(=O)O)C(=O)O)ccc3O)CC(=O)O)c2)nn1)C(=O)O)[C@@H](C)O)C(C)C [gallium-68 labelled]", "test system": "NMRI nu/nu mice, LNCaP tumour, kidneys", "conditions": "10 MBq, high molar activity", "endpoint": "standardized uptake value", "result": "35.8 g/g"}
{"SMILES": "N=C(N)NCCC[C@@H]1NC(=O)[C@H](CCCCNC(=O)CCOCCOCCOCCOCCNC(=O)CC[C@H](NC(=O)CCOCCOCCOCCOCCNC(=O)CC[C@H](NC(=O)CN2CCN(CC(=O)O)CCN(CC(=O)O)CCN(CC(=O)O)CC2)C(=O)NCCOCCOCCOCCOCCC(=O)N[C@@H](CCC(=O)NCCOCCOCCOCCOCCC(=O)NCCCC[C@@H]2NC(=O)[C@@H](Cc3ccccc3)NC(=O)[C@H](CC(=O)O)NC(=O)CNC(=O)[C@H](CCCNC(=N)N)NC2=O)C(=O)NCCOCCOCCOCCOCCC(=O)NCCCC[C@@H]2NC(=O)[C@@H](Cc3ccccc3)NC(=O)[C@H](CC(=O)O)NC(=O)CNC(=O)[C@H](CCCNC(=N)N)NC2=O)C(=O)NCCOCCOCCOCCOCCC(=O)NCCCC[C@@H]2NC(=O)[C@@H](Cc3ccccc3)NC(=O)[C@H](CC(=O)O)NC(=O)CNC(=O)[C@H](CCCNC(=N)N)NC2=O)NC(=O)[C@@H](Cc2ccccc2)NC(=O)[C@H](CC(=O)O)NC(=O)CNC1=O [indium-111 labelled]", "test system": "athymic nude mice, female, U-87 MG glioma xenograft, tumour and liver", "conditions": "intravenous, 0.5 h", "how to read": "reference: tumour over liver", "endpoint": "tumour to tissue ratio", "result": "2.55 ± 0.21"}
{"SMILES": "CSCC[C@H](NC(=O)[C@H](CC(C)C)NC(=O)[C@H](Cc1c[nH]cn1)NC(=O)CNC(=O)[C@@H](NC(=O)[C@H](C)NC(=O)[C@H](Cc1c[nH]c2ccccc12)NC(=O)[C@H](CCC(N)=O)NC(=O)CCCCCNC(=O)CNC(=O)CNC(=O)CNC(=O)CSC(C)=O)C(C)C)C(N)=O [technetium-99m labelled]", "assay": "shake-flask", "test system": "n-octanol/water", "endpoint": "log P", "result": "-0.39 ± 0.02"}
{"SMILES": "N=C(N)NCCC[C@@H]1NC(=O)[C@H](CCCCNC(=O)CC[C@H](NC(=O)CCOCCOCCOCCOCCNC(=O)CN2CCN(CC(=O)O)CCN(CC(=O)O)CCN(CC(=O)O)CC2)C(=O)NCCCC[C@@H]2NC(=O)[C@@H](Cc3ccccc3)NC(=O)[C@H](CC(=O)O)NC(=O)CNC(=O)[C@H](CCCNC(=N)N)NC2=O)NC(=O)[C@@H](Cc2ccccc2)NC(=O)[C@H](CC(=O)O)NC(=O)CNC1=O [indium-111 labelled]", "test system": "athymic nude mice, female, U-87 MG glioma xenograft, tumour and kidney", "conditions": "intravenous, 1 h", "how to read": "reference: tumour over kidney", "endpoint": "tumour to tissue ratio", "result": "1.11 ± 0.09"}
{"SMILES": "CCCC[C@H](NC(=O)CNC(=O)CNC(=O)CNC(=O)c1ccc(NN)nc1)C(=O)N[C@H]1CC(=O)NCCCC[C@@H](C(N)=O)NC(=O)[C@H](Cc2c[nH]c3ccccc23)NC(=O)[C@H](CCCNC(=N)N)NC(=O)[C@@H](Cc2ccccc2)NC(=O)[C@H](Cc2c[nH]cn2)NC1=O [technetium-99m labelled]", "test system": "C57 mouse, B16/F1 melanoma, kidneys", "conditions": "intravenous, 2 h", "endpoint": "uptake", "result": "5.09 ± 2.19 %ID/g"}
{"SMILES": "C[C@@H]1NC(=O)[C@H](CCC(=O)O)NC(=O)CNC(=O)[C@H](CC(=O)O)NC(=O)CNC(=O)[C@H](CCCCNC(=O)CCCCCNC(=O)[C@H](CS)NC(=O)CCCCCNC(=O)CN2CCN(CC(=O)O)CCN(CC(=O)O)CCN(CC(=O)O)CC2)NC(=O)[C@@H](Cc2ccc(O)cc2)NC1=O [gallium-68 labelled]", "test system": "mouse serum", "conditions": "1.5 h, 37 °C, 90% serum", "endpoint": "intact tracer", "result": "> 90%"}
{"note": "Some of these lines once more:"}
{"SMILES": "N=C(N)NCCC[C@@H]1NC(=O)[C@H](CCCCNC(=O)CC[C@H](NC(=O)CCOCCOCCOCCOCCNC(=O)CN2CCN(CC(=O)O)CCN(CC(=O)O)CCN(CC(=O)O)CC2)C(=O)NCCCC[C@@H]2NC(=O)[C@@H](Cc3ccccc3)NC(=O)[C@H](CC(=O)O)NC(=O)CNC(=O)[C@H](CCCNC(=N)N)NC2=O)NC(=O)[C@@H](Cc2ccccc2)NC(=O)[C@H](CC(=O)O)NC(=O)CNC1=O [indium-111 labelled]", "test system": "athymic nude mice, female, U-87 MG glioma xenograft, tumour and kidney", "conditions": "intravenous, 1 h", "how to read": "reference: tumour over kidney", "endpoint": "tumour to tissue ratio", "result": "1.11 ± 0.09"}
{"SMILES": "CC(C)C[C@@H]1NC(=O)[C@H](C(C)C)NC(=O)[C@H](CO)NC(=O)CNC(=O)CNC(=O)[C@H](CCCNC(=N)N)NC(=O)[C@@H]2CCCN2C(=O)[C@@H](NC(=O)CC[C@H](NC(=O)c2ccc(N(C)Cc3cnc4nc(N)nc(N)c4n3)cc2)C(=O)O)C(C)(C)SSC[C@@H](C(=O)O)NC(=O)CNC(=O)[C@H]([C@@H](C)O)NC(=O)[C@H](C(C)C)NC1=O", "assay": "chemical stability", "test system": "NaOH solution", "conditions": "100 µM, pH 12.0, 70 °C", "endpoint": "half-life", "result": "9.29 h"}
